Results from different studies.
± marks the error that the study gave.

| Structure (SMILES) | assay | test system | conditions | how to read | quantity | value |
| --- | --- | --- | --- | --- | --- | --- |
| C=CC(=O)Nc1cc(Nc2nccc(-c3cn(C4CC4)c4ccccc34)n2)c(OC)cc1N(C)CCNC | radio-HPLC | human male, feces | oral, 110 mg, 0 to 48 h, sample holds 45.32% dose | baseline: dose | excreted amount | 5.57% |
| CC12CC(c3ccc(S(C)(=O)=O)cc3)C3=C4CCC(=O)C=C4CCC3C1CCC2(O)C(F)(F)C(F)(F)F (stereo not drawn) |  | human | oral, 5 mg, mean of six subjects | baseline: dose | excreted amount in feces | 1.1% |
| Cc1ccc(OCC(=O)O)cc1 |  | Sprague-Dawley rat, male, plasma | oral gavage, 30 mg/kg of parent drug |  | Cmax | 4840 ± 1680 ng/mL |
| NCCC(=O)N1Cc2ccccc2-c2c(nnn2-c2cn(C3OC(CO)C(O)C3O)c(=O)[nH]c2=O)-c2ccccc21 (mixture of isomers) | frequency-domain fluorometry | methanol |  |  | fluorescence lifetime τ1 | 0.3 ns |
| CC(C)c1cnc(-c2cc(Cl)ccc2F)cc1Nc1ccncc1C(=O)NC(CO)CO | monotherapy, refers to: diarrhoea | human patients | oral, dose not given, grade 1, phase I A |  | patients with treatment-related adverse event | 7.1% |
| COc1cc(N(C)CCN(C)C)c(NC(=O)CCSCC(N)C(=O)O)cc1Nc1nccc(-c2cn(C3CC3)c3ccccc23)n1 (stereo not drawn) | radio-HPLC | human, feces | 96 to 240 h, sample holds 16.61% dose | baseline: dose | excreted amount | 0.74% |
| NCCCC(=O)OCC(=O)c1ccc(O)c(C(F)(F)F)c1 | pump-probe transient absorption | 10% acetonitrile in water |  |  | singlet lifetime | 3.3 ps |
| CC(C)(C)c1cc(-c2ccc3cccnc3n2)nc(-c2ccc3cccnc3n2)c1.COc1ccncc1.[Cl-].[Cl-].[Ru+2].c1ccc2cc3nc4c5cccnc5c5ncccc5c4nc3cc2c1 | 1O2 phosphorescence | acetonitrile | excitation 630 nm | baseline: Ru(bpy)3(PF6)2 | singlet oxygen quantum yield | 0.69 |
| O=c1c(O)c(-c2ccc(O)c(O)c2)oc2cc(O[C@@H]3O[C@H](CO)[C@@H](O)[C@H](O)[C@H]3O)cc(O)c12 |  | human plasma | concentration not given, three freeze-thaw cycles |  | concentration decrease | < 10% |
| CC(C)CCCC(C)CCCC(C)CCOC1O[C@H](CO)[C@@H](O)[C@H](O)[C@@H]1O (stereo partly drawn) | drop shape analysis | water/n-octane | solubility limit, 100 s, room temperature |  | interfacial tension | 4.2 mN/m |
| N=C(N)NCCC[C@@H]1NC(=O)[C@H](Cc2c[nH]c3ccccc23)NC(=O)[C@@H](CC2CCCCC2)NC(=O)[C@@H]2CCCN2C(=O)[C@@H](NC(=O)CCc2ccccc2)CCCNC1=O |  | C57BL/6J mice, plasma | subcutaneous, 1 mg/kg |  | absorption half-life | 0.0131 days |
| NS(=O)(=O)c1ccc(N2N=C(C(F)(F)F)CC2c2ccc(F)cc2F)cc1 (stereo not drawn) | population PK model | Beagle dog | bootstrap median |  | CL1/F other elimination | 0.193 L/h |
| CC(C)[C@H](NC(=O)CNC(=O)[C@H](CCC(N)=O)NC(=O)[C@H](C)N)C(=O)O | LC-MS/MS | human, male, plasma | intravenous, 10 mg/kg three times daily, day 1, first dose, 10 min infusion, geometric mean |  | clearance | 600 mL/min/kg |
| CN(CCCN=Cc1ccccc1[O-])CCN(C)CCCN=Cc1ccccc1[O-].[67Ga+3] |  | rat | intravenous, 1 min | baseline: heart over liver | tissue uptake ratio | 1.13 ± 0.09 |
| CC(C)C[C@@H](NC(=O)[C@H](NC(=O)[C@H]1CCCN1)[C@H](C)O)C(=O)N[C@H](Cc1c[nH]cn1)C(=O)N[C@@H](C(=O)N[C@H](Cc1c[nH]cn1)C(=O)N[C@H](CC(N)=O)C(=O)N[C@H](CCCNC(=N)N)C(=O)N[C@H](CCCNC(=N)N)C(=O)N[C@H](CCCNC(=N)N)C(=O)N[C@H](CCCNC(=N)N)C(=O)N[C@H](CCCNC(=N)N)C(N)=O)[C@H](C)O |  | Beagle dog, plasma | intravenous, 3 mg/kg, single dose |  | AUC fraction of alpha phase | 3.6% |
| NC[C@@H](C(=O)Nc1ccc(-c2cn[nH]c2)cc1)c1ccccc1 | OECD 405 eye irritation | New Zealand White rabbit, eye | topical, 0.1%, 8 h (day 1), scale 0 to 4 | direction not given | chemosis score | 0 |
| COC(=O)c1ccc(CCc2cc3cc4nc(c(OC)c5[nH]c(cc6nc(cc2[nH]3)CC6(C)C)cc5CCCNC(=O)OC(C)(C)C)C(=O)C4(C)C)cc1 |  | DMF | room temperature |  | singlet excited-state lifetime | 3.28 ns |
| CC(=O)N[C@H](CC(=O)O)C(=O)N[C@H](Cc1c[nH]c2ccccc12)C(=O)N[C@H](Cc1ccccc1)C(=O)N[C@H](CCCCN)C(=O)N[C@H](C)C(=O)N[C@H](Cc1ccccc1)C(=O)N[C@H](Cc1ccc(O)cc1)C(=O)N[C@H](CC(=O)O)C(=O)N[C@H](CCCCN)C(=O)N[C@@H](C(=O)N[C@H](C)C(=O)N[C@H](CCC(=O)O)C(=O)N[C@H](CCCCN)C(=O)N[C@H](Cc1ccccc1)C(=O)N[C@H](CCCCN)C(=O)N[C@H](CCC(=O)O)C(=O)N[C@H](C)C(=O)N[C@H](Cc1ccccc1)C(N)=O)C(C)C |  | statin-treated high-risk CHD patients, plasma | oral, 300 mg daily, day 13, 0 to 8 h, mean, detected subjects only |  | Cmax | 8.1 ng/mL |
| O=C(Cc1ccc2ccccc2c1)N[C@H](Cc1ccc(OP(=O)(O)O)cc1)C(=O)N[C@H](Cc1ccccc1)C(=O)N[C@H](Cc1ccccc1)C(=O)N[C@H](Cc1ccc(OP(=O)(O)O)cc1)C(=O)O | substrate, rheology | hydrogel | 0.5 wt%, together with: alkaline phosphatase 0.05 U/mL |  | gelation time | 2.5 h |
| COc1ccc(-c2csc(N/N=C(\C)c3cc(O)cc(O)c3)n2)cc1 | LC-MS/MS | rat plasma | 3.75 ng/mL, 5 h, 25 °C, bench-top storage |  | concentration after storage | 4.09 ng/mL |
| COc1ccc(C=NCCCN(C)CCN(C)CCCN=Cc2ccc(OC)cc2[O-])c([O-])c1.[67Ga+3] |  | rat | intravenous, 1 min | baseline: heart over lung | tissue uptake ratio | 1.97 ± 0.29 |

| Structure (SMILES) | assay | test system | conditions | how to read | quantity | value |
| --- | --- | --- | --- | --- | --- | --- |
| COC(=O)c1cc(NC(=O)[C@H](CCCCN)NC(=O)c2cc(NC(=O)[C@H](CCCCN)NC(=O)c3cc(NC(=O)[C@H](CCCCN)NC(=O)c4cc(NC(=O)[C@@H](N)CCCCN)ccc4OC)ccc3OC)ccc2OC)ccc1OC | UV-vis λmax shift | TBS | pH 7.4, monomer-hexamer fit, together with: NaCl 0.15 M |  | association midpoint concentration | 0.37 mM |
| O=C(NCCCN(CCCCN(CCCNC(=O)c1cccc(=O)n1[O-])C(=O)c1cccc(=O)n1[O-])C(=O)c1cccc(=O)n1[O-])c1cccc(=O)n1[O-].[89Zr+4] | radio-TLC | PBS | 1 h, pH 7.4, 37 °C, together with: K^+ 10-fold excess |  | intact complex | 99 ± 1.5% |
| O=C(O)CN1CCCN2CCN(CC1)CCN(CC(=O)O)CC2 [copper-64 labelled] |  | rat, male, juvenile Lewis | intravenous, 100 µCi, 24 h |  | liver clearance | 66.4% |
| COc1cc2c(cc1OC)CN(CCCCn1ccc3cc(OCC[18F])ccc31)C2 |  | male CD-1 mouse, liver | intravenous, 2 h |  | tracer uptake | 14.6 %ID/g |
| CCc1cc(Nc2nc(-c3ccc(-n4cnc(C)c4)c(F)c3)cs2)c(C)cc1C |  | human, both sexes, plasma | oral, 200 mg, day 1, multiple dose, geometric mean |  | AUC(0-last) | 3250 ng·h/mL |
| CO[C@H]1/C=C/O[C@@]2(C)Oc3c(C)c(O)c4c(c3C2=O)C2=NC3(CCN(CC(C)C)CC3)NC2=C(NC(=O)/C(C)=C\C=C\[C@H](C)[C@H](O)[C@@H](C)[C@@H](O)[C@@H](C)[C@H](OC(=O)c2cccnc2)[C@@H]1C)C4=O |  | CD-1 mice, plasma | oral | baseline: metabolite AUC over parent AUC | deacylated metabolite exposure | 0.01% |
| Cn1c(=O)oc2ccc(-c3ccc(CC(C#N)NC(=O)C4CNCCCO4)c(F)c3)cc21 (stereo not drawn) | refers to: blood bilirubin increased | human | 40 mg single dose, fasted |  | subjects with TRAE | 8.3% |
| NCCCC[C@H](NC(=O)[C@@H]1CCCN1C(=O)[C@@H]1CSSC[C@H](NC(=O)CNC(=O)CNC(=O)CN)C(=O)N[C@@H](Cc2ccc(O)cc2)C(=O)N[C@@H](Cc2ccccc2)C(=O)N[C@@H](CCC(N)=O)C(=O)N[C@@H](CC(N)=O)C(=O)N1)C(=O)NCC(N)=O |  | male Sprague Dawley rats | iv, single dose |  | adverse effect level (ataxia) | 1.5 mg/kg |
| CCCC[C@H](NC(C)=O)C(=O)N[C@H]1CC(=O)NCCCC[C@@H](C(=O)N[C@@H](C(=O)N2CCC[C@@H]2C(N)=O)C(C)C)NC(=O)[C@H](Cc2c[nH]c3ccccc23)NC(=O)[C@H](CCCN=C(N)N)NC(=O)[C@@H](Cc2ccc3ccccc3c2)NC(=O)[C@@H]2CCCN2C1=O |  | Beagle dog, both sexes, plasma | subcutaneous, once daily, 2.25 mg/kg, day 28 |  | AUC | 29100 ± 5000 ng·h/mL |
| CC1(C)COc2ccc(F)cc2CN2c3nc4c(cnn4cc3OC[C@H]2C(F)F)C(=O)N1 |  | SCID/beige mice, tumour-bearing, plasma | oral, 5 mg/kg, 12 h |  | unbound plasma concentration | 8 nM |
| C[C@H](NC(=O)COC(=O)[C@H](C)NC(=O)CO)C(=O)O |  | water | pH 3, 25 °C |  | depolymerization half-life | 27 days |
| NC12CNCCNCC(NCc3ccc(CNC(=O)CCCC(=O)NCc4ccc(-c5nncnn5)cc4)cc3)(CNCCNC1)CNCCNC2.[64Cu+2] | OLINDA dosimetry | red marrow | pretargeting, 48-h interval |  | mean absorbed dose | 0.028 rad/mCi |
| CSc1cc(C)nc(SC)c1NC(=O)CN1CCN(CCSc2nc3ccccc3[nH]2)CC1.Cl |  | mouse Crl:CD1 (ICR), female, olfactory bulb | intranasal, 10 µL, 120 min, once daily for 7 days |  | concentration | 0 ng/g |
| CC(C)[C@H](NC(=O)[C@@H]1CCCN1C(=O)[C@H](CCCNC(=N)N)NC(=O)[C@H](CS)NC(=O)[C@H](Cc1c[nH]c2ccccc12)NC(=O)[C@H](CCCNC(=N)N)NC(=O)[C@@H](Cc1ccccc1)NC(=O)[C@H](Cc1c[nH]cn1)NC(=O)[C@H](CCC(=O)O)NC(=O)[C@H](CS)NC(=O)[C@H](CS)NC(=O)[C@@H]1CC(=O)N[C@@H](CCCNC(=N)N)C(=O)NCC(=O)N[C@@H](CC(=O)O)C(=O)N[C@H](Cc2ccc(O)cc2)C(=O)N1)C(N)=O [technetium-99m labelled] |  | C57 mouse, female, B16/F1 melanoma, spleen | intravenous, 0.037 MBq, 24 h |  | tissue uptake | 0.57 ± 0.25 %ID/g |
| NC(=O)[C@H](Cc1ccccc1)N[11C](=O)OCc1ccccc1 |  | male Wistar rats, brain supernatant | intravenous, 5 min |  | intact tracer | > 99.9% |
| CC(=O)[CH](C(C)=O)[Pt-2]1([S+](C)C)[O]C(C)=CC(C)=[O+]1 (stereo not drawn) |  | rat, blood | intravenous, 10 mg/kg, single dose |  | total protein | 4.31 ± 8.5 g/dL |
| CCCC[C@H](NC(=O)CNC(=O)CNC(=O)CN1CCN(CC(=O)O)CCN(CC(=O)O)CCN(CC(=O)O)CC1)C(=O)N[C@H]1CC(=O)NCCCC[C@@H](C(N)=O)NC(=O)[C@H](Cc2c[nH]c3ccccc23)NC(=O)[C@H](CCCNC(=N)N)NC(=O)[C@@H](Cc2ccccc2)NC(=O)[C@H](Cc2c[nH]cn2)NC1=O [copper-64 labelled] | RP-HPLC | mouse serum | 2 h, 37 °C |  | serum stability | stable |
| CC(CCCOC(=O)CCC[N+](C)(C)C)C1CCC2C3CCC4CC(OC(=O)CCC[N+](C)(C)C)CCC4(C)C3CCC12C (stereo not drawn) |  | mouse red blood cells | 1 h, 37 °C |  | HC50 | 205 µg/mL |
| CC12CC3CC(C)(C1)CC(NC(=O)Nc1ccc(C(=O)N4CCC[C@H](C(N)=O)C4)cc1F)(C3)C2 |  | Sprague Dawley rats, both sexes, plasma | oral, 50 mg/kg |  | CL | 4070 mL/h |
| O=C([O-])c1cccc(CN(CCN(Cc2cn(Cc3ccccc3)nn2)Cc2cccc(C(=O)[O-])n2)Cc2cn(Cc3ccccc3)nn2)n1.[64Cu+2] |  | mouse, intestine | intravenous, 4 h |  | tracer uptake | 21.1 %ID/g |
| COc1cc(NC(C)=O)c2c(c1O)-c1c(OC)c(OC)cc3c1C(C2)N(C)CC3 (stereo not drawn) |  | rat heart homogenate | 5 µg/mL, 40 d, -20 °C, long-term storage |  | remaining compound | 99.4 ± 1.7% |

Repeated from above:
| Structure (SMILES) | assay | test system | conditions | how to read | quantity | value |
| --- | --- | --- | --- | --- | --- | --- |
| CC(C)CCCC(C)CCCC(C)CCOC1O[C@H](CO)[C@@H](O)[C@H](O)[C@@H]1O (stereo partly drawn) | drop shape analysis | water/n-octane | solubility limit, 100 s, room temperature |  | interfacial tension | 4.2 mN/m |
| N=C(N)NCCC[C@@H]1NC(=O)[C@H](Cc2c[nH]c3ccccc23)NC(=O)[C@@H](CC2CCCCC2)NC(=O)[C@@H]2CCCN2C(=O)[C@@H](NC(=O)CCc2ccccc2)CCCNC1=O |  | C57BL/6J mice, plasma | subcutaneous, 1 mg/kg |  | absorption half-life | 0.0131 days |
